Published values from different studies.
Parts stem from different laboratories: compare values within a part only.

Sample 1 — technique: protein-binding microarray; molecule type: double-stranded DNA, one strand shown; matrix: in vitro; tested at: 0.8 µM; notes: whole 60-bp probe, no competitor; direction: higher = stronger binding; quantity: fluorescence intensity
Target: Centromere-binding protein 1, full length, N-terminal tag (CBF1, Saccharomyces cerevisiae, UniProt P17106, residues 1-351)
Chain of UniProt P17106 (whole entry, looked up): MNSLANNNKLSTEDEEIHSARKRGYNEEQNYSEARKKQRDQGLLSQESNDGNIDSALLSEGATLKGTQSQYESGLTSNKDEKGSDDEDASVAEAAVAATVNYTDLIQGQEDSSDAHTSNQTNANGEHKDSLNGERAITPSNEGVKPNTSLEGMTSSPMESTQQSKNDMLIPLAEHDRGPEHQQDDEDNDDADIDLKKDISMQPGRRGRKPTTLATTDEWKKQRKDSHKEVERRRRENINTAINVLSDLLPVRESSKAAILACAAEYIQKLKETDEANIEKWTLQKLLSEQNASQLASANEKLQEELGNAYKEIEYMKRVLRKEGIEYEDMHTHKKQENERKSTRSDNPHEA
GAAGAACAGCTTGTTCGCCTGATCTCCACCTTATAGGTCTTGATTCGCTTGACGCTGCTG: 486 a.u.
TGTACGAAGCTATAACTCACCTGTATAGTAGTTAGGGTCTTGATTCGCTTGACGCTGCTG: 545 a.u.
GAAGGTACCAGCGGTGACGTTCGGTAGACTCTATAGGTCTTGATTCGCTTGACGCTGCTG: 491 a.u.
CTATTCCGTAATCGTGGTGCTCAACTTTTGAAATTCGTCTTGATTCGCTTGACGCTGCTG: 507 a.u.
CTAATCAGTATTACGCACGTTGGTGCTGTTATATTCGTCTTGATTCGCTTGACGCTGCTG: 519 a.u.
CTAAATTCAAGTTACCTCGTGTTCTTAGTCATTTTCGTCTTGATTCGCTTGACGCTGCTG: 660 a.u.
TGTACGAAGCTATTCCATCTGATTATAGTAGTTAGGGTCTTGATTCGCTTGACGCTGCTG: 533 a.u.
CTATAACAACACTTATTCGTGGCAAGAACGAAATTCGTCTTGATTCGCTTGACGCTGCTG: 529 a.u.
CTAAAGTAATATCATAACGTGTGATGACTACTGTTCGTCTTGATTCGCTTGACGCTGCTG: 609 a.u.
GAACTATTTGCTTCTCACGTTCTATAATATAGTTAGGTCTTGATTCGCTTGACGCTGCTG: 878 a.u.
CTAGCTTCCCTGCCACACGTTCCGCCTCAGTCGTTCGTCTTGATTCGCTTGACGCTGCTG: 582 a.u.
GAAAGTGAGGCGCATCACGTGAAAATACGTCAATAGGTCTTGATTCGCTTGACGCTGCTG: 7370 a.u.
TGTACGAAGCTATATCACAATGCTATAGTAGTTAGGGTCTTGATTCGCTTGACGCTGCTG: 538 a.u.
CTATTTTCGAGACATCAGGTAAAAAGGATAGTTTTCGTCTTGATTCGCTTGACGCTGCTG: 519 a.u.
CTAGGATTCATCTTACACGCGGTCATATTAGGCTTCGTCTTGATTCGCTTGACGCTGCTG: 563 a.u.
GAAGCCGAGAAGTTACTCGTGCAATTCACTACGTAGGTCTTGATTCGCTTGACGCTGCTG: 562 a.u.
GAATTCAAGTTACATGTGATATTTATTCGAGAATAGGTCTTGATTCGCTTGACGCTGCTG: 2460 a.u.
CTAGGCGGGATCTGGCCCGTGGAAATCGTATGGTTCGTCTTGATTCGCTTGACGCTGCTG: 490 a.u.
GAAGACAGTTGTGCTCACATGATATAACAAAAGTAGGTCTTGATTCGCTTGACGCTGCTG: 1890 a.u.

Sample 2 — technique: RNA Bind-n-Seq; molecule type: RNA; matrix: in vitro; tested at: 365 nM; reference: no-protein control; direction: higher = stronger binding; quantity: RBNS enrichment (R)
Target: RNA binding protein fox-1 homolog 2, RRM domain, GST-SBP tag (RBFOX2, Homo sapiens, UniProt O43251-10, residues 100-194)
Notes: natural RNA segment, single round, ends assumed
Target sequence (chain): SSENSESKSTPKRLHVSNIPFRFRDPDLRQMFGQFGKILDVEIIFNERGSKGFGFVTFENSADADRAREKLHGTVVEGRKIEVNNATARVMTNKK
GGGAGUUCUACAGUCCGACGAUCUCAGUACUACCAGCACUUUGCCAAAACUGUCAGAGGGACCCGUUUCUAGAGUGAGUCCCAGUUACAUCAAACAGUGACUUCCAGUUAUUCCCCAGUAAGUCUGAGUGGUUUGGAAUUCUCGGGUGCCAA: 0.318
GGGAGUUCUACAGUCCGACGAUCUGGAAACAGUCCACUUGGGCGCAAAACCCAGUGCCUUCCAAAUGAGCUGCAGUCCCCAGGCCAUGAGCCUCCCGGGAAUGUUUAAUAAAGGGCCUGGCCAACUCUCCUCAUGGAAUUCUCGGGUGCCAA: 0.582
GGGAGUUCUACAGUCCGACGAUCUUGUCCUCAGGGCUACAGCAGUAGGGAGGUCAGUGCUUCGUGCCUCGAUUGAAGGUGACCUCUGCCCCAGAUAGGUGGUGCCAGUGGCUUAUUAAUUCCGAUACUAGUUUUGGAAUUCUCGGGUGCCAA: 2.6
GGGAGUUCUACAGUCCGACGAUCUACUUGAAAAAUUAAUUGUAUGAUGUAUGAGAAGACAGAGUCUCCUAGUUUUGUAUCUUGUUGUAUGACUGCCAUGAGUUCCACCAGAAAGCCACUCUAUUUUGGUCUCUUGGAAUUCUCGGGUGCCAA: 2
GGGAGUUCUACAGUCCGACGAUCUUUAAUUUUCUGUCUGAUGUCACAGAUCAUUGUUGCACACAAACGUGGCAUAGAAAAGAACAUGUUCAGAAGCCAUGGGGCCAAGCACAUGCGGGGACGGUCUCAAAUGCUGGAAUUCUCGGGUGCCAA: 0.682
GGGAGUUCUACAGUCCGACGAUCGAACAAAAACCAAUAAAAGAAUAUACUCUUUUCAUUGACUAUAGUAUUAUGUGAAUGCUACAUUUGUUCUGAACACUUAGGGGCUGCAAAAAUGUAAUAAGAAAUGCAUAUGGAAUUCUCGGGUGCCAA: 0.552
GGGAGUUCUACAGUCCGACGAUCAACUAGUUCCUCUCUUUUUUUCUGCCAAGUCCUGAAUUGAAAACUGUAGGCUUCCUUGCACAGAUGUUGCAGCCAGCCUCAGGAGUAAAGUGCCCGCUGACUGCUGCCGCUGGAAUUCUCGGGUGCCAA: 0.457
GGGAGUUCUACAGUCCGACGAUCAGUCUUGCUCUGUUGCCCAGGCUGGAGUGCAGUAGCACGAUCUCGGCUCACUGCACCCUCCGUCUCUCGGGUUCAAGCAAUUGUCUGCCUCAGCCUCCCGAGUAGCUGGGUGGAAUUCUCGGGUGCCAA: 0.435
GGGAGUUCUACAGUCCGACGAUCGAACAGCUCGGGCCACUCUUCUGAAGGCCAACGUGGAGGAAAGGGAGCAGCCAGCCAUUUGGGAGAAGAUCUCAAGGAUCCAGACUCUCAUUCCUUUCCUCUGGCCCAGUUGGAAUUCUCGGGUGCCAA: 0.269
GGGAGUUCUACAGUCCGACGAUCAUCUCUCCAGCAACAAUAACCUAAGAUGUCUAUAGACAUUAGACCAUGUCUCCAUAAGACAGGCCCACUAGAAACACCGUUCAGAACCAUAGAGAAGCCAUGGUUUCUGCUGGAAUUCUCGGGUGCCAA: 0.53
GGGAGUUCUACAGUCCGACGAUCUUAUCUUCUCAUAUUUGACAAAUUUGUGAUAGAAAUAAUAAUUCCCACAUCUACCGGUACUUGCCUAAACCCUGACUGUGCCAUCCCAAAGGCCUUGAUGUGAAUUUUCUUGGAAUUCUCGGGUGCCAA: 0.548
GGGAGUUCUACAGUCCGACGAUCCAGGCUGUGCCUUGGUUUCCUGAGCCACCUUUACUCUGCUCUAUGCCAGGCUGUGCUAGCAACACCCAAAGGUGGCCUGCGGGGAGCCAUCACCUAGGACUGACUCGGCAUGGAAUUCUCGGGUGCCAA: 0.471

Sample 3 — technique: protein-binding microarray; molecule type: double-stranded DNA, one strand shown; matrix: in vitro; tested at: 2200 nM top; notes: 60-bp whole probe; added: salmon DNA 0.4 mg/ml; reference: random background probes; direction: higher = stronger binding; quantity: fitted relative affinity; shared flanks, not repeated: GCCTAGCAC … GTCTTGATTCGCTTGACGCTGCTG
Target: Interferon regulatory factor 7, full length, phosphomimetic (IRF7, Homo sapiens, UniProt Q92985, residues 1-503, S471D/S472D/S475D/S476D/S477D/S483D/S484D/S487D)
Chain of UniProt Q92985 (whole entry, unmodified, looked up): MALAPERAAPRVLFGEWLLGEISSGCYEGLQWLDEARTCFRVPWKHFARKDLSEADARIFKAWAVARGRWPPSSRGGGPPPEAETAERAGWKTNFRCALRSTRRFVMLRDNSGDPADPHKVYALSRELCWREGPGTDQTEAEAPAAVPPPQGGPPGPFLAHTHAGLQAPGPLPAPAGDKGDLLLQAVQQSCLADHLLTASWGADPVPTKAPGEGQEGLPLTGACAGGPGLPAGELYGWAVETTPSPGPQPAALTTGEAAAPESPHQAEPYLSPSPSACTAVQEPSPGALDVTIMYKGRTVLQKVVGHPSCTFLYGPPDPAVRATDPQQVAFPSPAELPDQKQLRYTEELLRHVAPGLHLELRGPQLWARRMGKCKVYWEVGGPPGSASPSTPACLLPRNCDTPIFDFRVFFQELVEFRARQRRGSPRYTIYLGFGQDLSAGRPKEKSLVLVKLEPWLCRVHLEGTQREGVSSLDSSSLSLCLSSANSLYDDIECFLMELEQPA
TTAGGTCTCCTACTGCTATAGTGCTAG: 0.613 z-score
CTGTGTGTCAGGTTTACTAGGGTGCTA: -0.042 z-score
GACGGTTCCCTTTTCATGACGTGCTAG: 2.19 z-score
TTAGGTTTCGGCTCCGGTTAGTGCTAG: 3.55 z-score
GACGGTCTCCTTTTCCTGGCGTGCTAG: 1.27 z-score
GGCCTCTCTGTTTTCCTGTTGTGCTAG: 2.88 z-score
TTAGGTATCGGTCACGGTTAGTGCTAG: 0.18 z-score
TCAGTCTTCACTCTGCTACTGTGCTAG: 1.58 z-score
TTCATTATTGTTTCCTCTTTGTGCTAG: 2.82 z-score
TCAACACTGGTTTTTACACTGTGCTAG: 0.598 z-score
TTAGATCTTAGTTTCGATTAGTGCTAG: 6.64 z-score
GACGAACAGGGGACTGGAGACGTGCTA: -0.0211 z-score
GACGGTCGCCTTATCCTGACGTGCTAG: 0.517 z-score
CAACTTTTTTTAATTGAGAAGTGCTAG: -0.244 z-score
GACGATCTCATTATCGAGACGTGCTAG: 0.532 z-score
TTAGGTATCGGGTATCGGCTAGTGCTA: 0.291 z-score
TTAGATCTCAGTCGCGATTAGTGCTAG: 0.0922 z-score
GACGATTTCGGGCTTCGAGACGTGCTA: 1.36 z-score
GGCGGTTTCGGGTATCGGGACGTGCTA: 6.03 z-score
TTAAGTATCGGTTTCGGTTAGTGCTAG: 7.74 z-score
TTAGTTCTCGGACTGGGTTAGTGCTAG: 0.535 z-score
TCACTTTTTGCTTTCTTACTGTGCTAG: 4.23 z-score

Sample 4 — technique: universal PBM; molecule type: double-stranded DNA, one strand shown; matrix: in vitro; tested at: not given; direction: higher = stronger binding; quantity: E-score
Target: Sal-like protein 4, full length isoform B (SALL4, Homo sapiens, UniProt Q9UJQ4-2, residues 1-616)
Notes: 8-mer, flanks averaged, mean of replicates
AGGCGCAA: -0.0613
ACCCGTAC: -0.133
AGCAAGGC: -0.267
AAATCTGG: 0.0345
AGGTCTCG: -0.138
CTACCGGC: -0.168
CCTTCTGC: -0.233
CATTTTAA: 0.268
TGGTGACA: 0.0351
TAACCCTA: -0.0018
CCAACGTA: -0.00064
ACTCCGCG: -0.287
AGTTTAAG: 0.103
CATGCCAA: 0.0993
CTTATCGA: 0.227
AAGTGTTG: 0.0425
GCTCCCAC: -0.292

Sample 5 — technique: protein binding microarray; molecule type: double-stranded DNA, one strand shown; matrix: in vitro; tested at: not given; reference: not given; direction: higher = stronger binding; quantity: E-score
Target: Histone acetyltransferase KAT6A, both winged helices, GST fusion (KAT6A, Homo sapiens, UniProt Q92794, residues 1-181)
Notes: 8-mer, flanks averaged, mean of 2 arrays, mostly near background
Target sequence (chain): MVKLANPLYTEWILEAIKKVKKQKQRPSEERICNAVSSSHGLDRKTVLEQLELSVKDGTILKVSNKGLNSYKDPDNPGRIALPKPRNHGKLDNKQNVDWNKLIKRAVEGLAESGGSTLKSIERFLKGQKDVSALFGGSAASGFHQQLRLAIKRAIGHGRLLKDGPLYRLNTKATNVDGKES
GAGCTGGC: -0.143
GAAATCGC: 0.0165
AATGTGGA: -0.149
ATGCGTAA: 0.15
TGTAAGAA: -0.0516
AGGGGATG: -0.241
CTCTATCC: 0.00554
AGCAGAAA: -0.0982
CCGTGCAC: 0.161
CTACAAGA: -0.195
TAGCTACA: -0.0996
AGGAGACA: -0.118
ACCTAGCG: 0.255
CCCGGGCA: 0.199
ACCTAGCA: -0.176
ATTGCCAC: -0.0767
ATTCCTAG: -0.185
AAGAATGG: -0.0898
GCGTGTAC: 0.199
CCCCATTA: -0.194
ATACGCCG: 0.31
ATGCTGTA: -0.142
ACGGACCG: 0.234
GCTGCCAC: -0.00358
ATAAAGAG: 0.00046
